Measured values gathered from unrelated publications.
Each numbered part is a random draw from the data of one study; scales do not carry over between parts. Positions count from the first letter of the parent shown.

Study 1
Target: Sal-like protein 4, full length isoform A (SALL4, Homo sapiens, UniProt Q9UJQ4, residues 1-1053)
UniProt Q9UJQ4, sequence (whole entry, looked up): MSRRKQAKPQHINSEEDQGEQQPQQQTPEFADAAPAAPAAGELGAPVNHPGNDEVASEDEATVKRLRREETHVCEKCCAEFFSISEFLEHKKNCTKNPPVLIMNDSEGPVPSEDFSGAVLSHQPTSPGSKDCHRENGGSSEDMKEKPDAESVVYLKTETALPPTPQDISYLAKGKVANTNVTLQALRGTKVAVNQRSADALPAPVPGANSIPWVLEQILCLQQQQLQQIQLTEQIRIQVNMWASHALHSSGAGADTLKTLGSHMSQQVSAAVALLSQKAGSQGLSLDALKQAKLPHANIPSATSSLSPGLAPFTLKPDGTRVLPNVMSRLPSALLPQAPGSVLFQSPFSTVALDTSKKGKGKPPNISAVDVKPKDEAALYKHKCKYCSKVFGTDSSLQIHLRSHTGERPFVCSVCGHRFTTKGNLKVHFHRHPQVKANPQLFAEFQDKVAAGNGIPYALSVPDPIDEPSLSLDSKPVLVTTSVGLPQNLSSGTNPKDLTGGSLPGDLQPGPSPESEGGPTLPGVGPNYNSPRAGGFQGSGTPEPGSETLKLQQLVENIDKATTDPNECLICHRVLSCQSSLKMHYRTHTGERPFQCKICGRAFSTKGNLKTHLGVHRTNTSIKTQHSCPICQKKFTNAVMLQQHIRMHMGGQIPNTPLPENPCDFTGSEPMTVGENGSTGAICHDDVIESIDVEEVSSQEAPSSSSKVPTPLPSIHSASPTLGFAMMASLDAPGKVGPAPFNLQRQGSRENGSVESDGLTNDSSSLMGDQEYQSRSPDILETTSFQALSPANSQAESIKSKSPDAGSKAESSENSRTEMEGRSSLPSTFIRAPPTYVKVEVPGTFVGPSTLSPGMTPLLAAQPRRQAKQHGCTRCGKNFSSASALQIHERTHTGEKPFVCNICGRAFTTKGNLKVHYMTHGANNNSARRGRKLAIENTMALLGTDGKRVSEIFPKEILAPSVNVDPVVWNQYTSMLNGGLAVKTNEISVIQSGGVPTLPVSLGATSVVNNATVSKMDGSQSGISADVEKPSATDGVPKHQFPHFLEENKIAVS
Method: universal PBM
Molecule type: double-stranded DNA, one strand shown
Sample: in vitro
Tested at: 600 nM
Notes: 8-mer, flanks averaged, mean of replicates
Direction: higher = stronger binding
Oligonucleotide | E-score
GGTCTTAA | -0.0249
AGCTACAT | 0.0735
ATGTGCCG | -0.126
GAACCCGC | -0.293
GAGCGCTA | -0.168
CGATTTGA | 0.0805
GACACTGA | -0.0157
CCATCGAA | 0.0086
AAAGGTCA | -0.0849
CAACTCAC | -0.058
ATCTTTAC | 0.17
GGTCCGCA | -0.283
AGTACTGA | 0.153
GGACACCC | -0.401
CTAAGCGA | -0.269
GGTCGGAA | -0.146
CTGGTGCA | -0.221
CCCACGGA | -0.292
AAATGCGT | 0.177
ATTGTCAA | 0.24
CAAGTGGG | -0.0715
GACATGAA | 0.247
CTGAGTGA | 0.0412
ACGACCCC | -0.321

Study 2
Target: RNA binding protein fox-1 homolog 2, RRM domain, GST-SBP tag (RBFOX2, Homo sapiens, UniProt O43251-10, residues 100-194)
Method: RNA Bind-n-Seq
Molecule type: RNA
Sample: in vitro
Tested at: 365 nM
Notes: natural RNA segment, single round, ends assumed
Relative to: no-protein control
Direction: higher = stronger binding
Constant ends, left off below: GGGAGUUCUACAGUCCGACGAUC … UGGAAUUCUCGGGUGCCAA
Residues (chain): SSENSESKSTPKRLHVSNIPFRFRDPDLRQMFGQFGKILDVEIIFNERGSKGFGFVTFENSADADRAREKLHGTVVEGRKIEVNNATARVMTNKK
Oligonucleotide | RBNS enrichment (R)
AAUGUCCCCCAUCAUGUGGCCCAACUCUCCUGGCCUGGCCAUCUCCCUCCCCAGAAACAGUGUGCAUGGGUUAUUUUGGAGUGUAGGUGACUUGUUUACUCAUUGAAGCA | 12.4
GCUGGCCCAAUGGAGCCUUACAGAACUAAUCAGGACUUGUGGAGACCUCUGCACUGAACUUCCUAUAAGUAACUUCCACCACACUGGUUUCUACUCUCAGAACUGCCCCA | 0.479
AAAAUUAUAUAGGUUCUGAUGAAAGCUUCAUAAUUUCACCCUGUGACUAUCCUGAAAAGAAAUAAUAAUCAUUUUAUGAUUGAUGGGCCAAAAAAAGCAAUCAAAGUCUU | 0.356
GACCGCCCUCAGCCCGUUGGAAGCUUGGUUUAGAGGACUUGUUGGGCUCAUUUUGGUUUUAUUGAAAUGCCAUCUAAAUAUGUUAGCUGUAGAUAGGAGGUGCUUCUGGU | 2.61
CCUAAGAAGAUGGAUGUCCUCAAAAGAGAAGGAACAAACCUCCUUGGGAAUCCACAUUUUUUGGGGGAAUGGAAAAGCUCUGUCUCCCUAACUCAACUGCUUUGCAAGGG | 0.432
GUUGCCUGCUUUGUGCUUUCUGCACCAGACAACCUGAUGGAACAUUUGCACCUGAGUUGUACAUUUUUGAAGUGUGCAGGGCAGCCUGGACACAAGCUUAGAUUCUCUAU | 0.252
CAAAAGGUGUCUAUAGAACUAGUGGGGCUUCUGCAUGUGAAAAACGGUUUUCCAUAGGCAUUAAAGUGCUGAAUGCUCAGUCUGAUCAACAAGUGGGCACCUGCACUACC | 2.5
GGAGGCUGAGGCAGGAGAAUCGCUUGAACCCGGGAGGUGGAGGUUGCGGUGAGCCAAGAUCGCACCAUUGCACUCCAGCCUGGGCAACAAGAGCGAAACUCUGUCUCAAA | 0.356
GCACCCAAUAAUAAUUAAAUAAAUAAAAACAAGGAAUUCUGUUCUUUUGCUUUAUCAGGAACACCAAAAUGAAUUCAGGAGUUUGACUCCCUUAAAAUCUGGUCUGCUUA | 0.653
CUGGCUCCGCUGACCUACGAUAAUUAUACGACGGAGACCUACGCAAGCGACCUGCUGCCUUCCUUCCCACUGCUUGUCUUCAGUGUGCCCGGCUGGGCAGGGGUGCGGUG | 0.456
GGGUUGGACAGUGAAUCUUAAGAUUUCAUCCUUCAUUCAGUAAGCAUUUGAGUACCUACUGUGAGCAGGCAUUGGGGCGGAGCAGCGAGAGCCCUGCCGAUGUUGGGUUC | 0.382
CUUGAAAUUCAUUGGUCUAGUUGUAAUUUUUAUACAAAUUACACCAAGAGAUAAGAUGUCUUUUUUUUACAGAAGUGUAAUAGUCACAGUGCCGCUUAUAGGCUGCACGC | 0.298

Study 3
Target: Histone acetyltransferase KAT6A, winged helix 1, GST fusion (KAT6A, Homo sapiens, UniProt Q92794, residues 1-85)
Method: protein binding microarray
Molecule type: double-stranded DNA, one strand shown
Sample: in vitro
Tested at: not given
Notes: 8-mer, flanks averaged, mean of 2 arrays, mostly near background
Relative to: not given
Direction: higher = stronger binding
Construct (chain): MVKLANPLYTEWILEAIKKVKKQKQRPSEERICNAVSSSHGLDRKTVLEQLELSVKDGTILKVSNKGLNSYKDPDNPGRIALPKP
Oligonucleotide | E-score
TAGCGACA | 0.00305
AATTATAA | -0.0322
ACTTTCCA | -0.325
CCACGAGA | -0.251
GCATTGGA | -0.0705
CGTCACCC | 0.147
CGCGCAGC | 0.361
AATACAGT | -0.218
ATCAACGA | -0.142
GATACAGA | -0.242
CAGTGCTA | -0.126
GGTATCAA | -0.072
ACATCCGC | 0.343
AAAATGGG | -0.144
AGTCCGAT | -0.0281
CTTAAGCC | 0.126
AAGTACTA | -0.0217
AAAGTGGT | -0.228
ACCTTACT | -0.246
ACTGTATC | -0.00771
ATGACGAG | 0.00102
CCGACTTC | 0.107
AGTAGCAT | -0.0556
GAAGTCTC | -0.0999
CATTAGGA | -0.0717

Study 4
Target: Ras GTPase-activating protein-binding protein 1, C-terminal RGG region (G3BP1, Homo sapiens, UniProt Q13283)
UniProt Q13283, sequence (whole entry, looked up): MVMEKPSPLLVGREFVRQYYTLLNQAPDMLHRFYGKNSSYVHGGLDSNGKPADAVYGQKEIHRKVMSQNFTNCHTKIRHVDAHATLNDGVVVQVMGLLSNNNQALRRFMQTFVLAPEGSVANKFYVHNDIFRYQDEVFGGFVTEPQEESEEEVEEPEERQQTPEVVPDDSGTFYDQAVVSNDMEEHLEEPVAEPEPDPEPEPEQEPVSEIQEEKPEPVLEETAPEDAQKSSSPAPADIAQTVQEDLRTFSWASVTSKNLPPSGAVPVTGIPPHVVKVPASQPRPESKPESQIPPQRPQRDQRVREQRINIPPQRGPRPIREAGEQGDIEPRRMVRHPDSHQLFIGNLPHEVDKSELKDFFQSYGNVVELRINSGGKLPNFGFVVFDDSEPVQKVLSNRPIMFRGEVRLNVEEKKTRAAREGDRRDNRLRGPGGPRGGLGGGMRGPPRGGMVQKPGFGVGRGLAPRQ
Method: RNA Bind-n-Seq
Molecule type: RNA
Sample: in vitro
Tested at: 1 µM
Notes: whole 134-nt RNA, ends assumed
With: 150 mM KCl
Relative to: input library
Direction: higher = stronger binding
Constant ends, left off below: GGGAGUUCUACAGUCCGACGAUC … UGGAAUUCUCGGGUGUCAAGG
Oligonucleotide | log2 enrichment
UGGGCGGUGGAUUUUGUUUAUUUUUUUAGCUCAUUUCCAGGGGUGGGAAUUUUUUUUUAAUAUGUGUCAUGAAUAAAGUUGUUUUUGAAA | 4.2
GCAGGAAGUAAAAACAAAUGGAAAUGCUUCGGAUAGUGGCAGGGGUGAAAGUUGCUAAGGAAAGGGUGGGAUGGGAGUGGGUAAAGAGUU | 2.03
UCAAGUCCUGUGCUACACAUCGUAUGUACCGAAUCGGCCCGGGGCCCGGCCCGGGAAAGUAUUAUGUUACGCCGUUCGGAUCUGCACUUC | -1.5
UCAAGUCCUGUGCUACACAUCGUAUGUACCGAAUCGGAAAAAGGAGGAAAAAGGAAAGUAUUAUGUUACGCCGUUCGGAUCUGCACUUCC | -1.41
ACCAUGCAGGUGGGCAUCUUUGGGAAGUGGGGCAAGGGGGGGAUAGGGAGGGGGGUAACACUUUGGGAACAGGUGGUCCGAGGUCGUUUC | 1.46
UUCCUCAAGUCCUGUGCUACACAUCGUAUGUACCGAAUCGGAGGAGGUGGAAAGUAUUAUGUUACGCCGUUCGGAUCUGCACUUCCAGCA | -1.42
UGGCCCUGGUGGCAUGCGGGGAGGAAGAGGUGGCCUCAUGGAUCGUGGUGGUCCCGGUGGAAUGUUCAGAGGUGGCCGUGGUGGGGACAG | 3.71
UCAAGUCCUGUGCUACACAUCGUAUGUACCGAAUCGGUUUGGGUUUGGGUUUGGAAAGUAUUAUGUUACGCCGUUCGGAUCUGCACUUCC | -0.883
UCCUGUGCUACACAUCGUAUGUACCGAAUCGGGGUUUUUGGGGAGGGGAAAAAAAGGGGAAAGUAUUAUGUUACGCCGUUCGGAUCUGCA | 1.49
UAACUUUAGAGGAGGAUCUGAUGGAUAUGGCAGUGGACGUGGAUUUGGGGAUGGCUAUAAUGGGUAUCGAGGAGGACCUGGAGGUGGCAA | -0.515
AAGUCCUGUGCUACACAUCGUAUGUACCGAAUCAAAUUUUUAAAUUUAAACCCAAAAAAGUAUUAUGUUACGCCGUUCGGAUCUGCACUU | -1.19
UCAAGUCCUGUGCUACACAUCGUAUGUACCGAAUCGGGGUUGGGGUUGGGUUGGAAAGUAUUAUGUUACGCCGUUCGGAUCUGCACUUCC | -0.00836
ACCAUGCAGGUGGGCAUCUUUGGGAAGUGGGGCAAGGGGGGGAUAGGGAGGGGGGUAACACUUUGGGAACAGGUGGUCCCAGGGCGUUUC | 2.23
UAACUUUAGAGGAAGAUCUGAUGGAUAUGGCAGUGGACGUGGAUUUGGGGAUGGCUAUAAUGGGUAUGGAGGAGGACCUGGAGGUGGCAA | -1.2

Study 5
Target: CCNB3, cyclin fold, Cln2 fusion (human)
Method: yeast growth competition, sequencing
Sample: yeast
Notes: weak parent motif
Relative to: not given
Direction: higher = stronger binding
Starting sequence: RB1 docking peptide (human); PKPLKKLRFDIEG
Variant | normalised enrichment score
PKPLKKDRFDIEG [L7D] | -0.501
PKPLKKLRFDIEH [G13H] | 0.14
PKPLKKLRLDIEG [F9L] | -0.115
PKPLKKLRFDIIG [E12I] | 0.749
EKPLKKLRFDIEG [P1E] | 0.593
PKYLKKLRFDIEG [P3Y] | 0.197
PKPLGKLRFDIEG [K5G] | 0.4
PKPLKYLRFDIEG [K6Y] | -0.327
PKPLIKLRFDIEG [K5I] | 0.346
PKPLKKLRFWIEG [D10W] | 0.0998
PCPLKKLRFDIEG [K2C] | 0.373
PHPLKKLRFDIEG [K2H] | -0.0473
PKPLKKLRFHIEG [D10H] | 0.171
PKPLWKLRFDIEG [K5W] | 0.245
WKPLKKLRFDIEG [P1W] | 0.203
PKPLKKLRFDIPG [E12P] | 0.434
PKPLKKLRFDKEG [I11K] | 0.392
PKPLKKLRFSIEG [D10S] | -0.437
PKPLKMLRFDIEG [K6M] | 0.46
PKPLVKLRFDIEG [K5V] | 0.281
PKPLKKLRWDIEG [F9W] | 0.0756
PKPLKKTRFDIEG [L7T] | -0.189
PKPLKKLRYDIEG [F9Y] | -0.349
PKPLKKLRFDIEY [G13Y] | -0.247
